Experimental data gathered from unrelated publications.
Every numbered part comes from another study and shows a few of its results, in no order. “And” joins repeats or separate records; there may be more than shown.

Series 1
Cell line: HaCaT
Tested at: 100 µM
Time: 18 h
| SMILES | viability [%] |
| --- | --- |
| Cc1cccc([C@H](C)c2cnc[nH]2)c1C | 114 |
| Cc1ccc(-n2nccn2)c(C(=O)N2CCN(c3nc4cc(Cl)ccc4o3)CC[C@H]2C)c1 | 49.9 |
| Oc1cccc2cccnc12 | 70.1 |
| O=P1(N(CCCl)CCCl)NCCCO1 (stereo not drawn) | 107 |
| C[C@@H]1O[C@@H](O[C@H]2C[C@@H](O)[C@]3(CO)[C@H]4[C@H](O)C[C@]5(C)[C@@H](C6=CC(=O)OC6)CC[C@]5(O)[C@@H]4CC[C@]3(O)C2)[C@H](O)[C@H](O)[C@H]1O | 30.5 |
| Cc1c(N)nc([C@H](CC(N)=O)NC[C@H](N)C(N)=O)nc1C(=O)N[C@H](C(=O)N[C@H](C)[C@@H](O)[C@H](C)C(=O)N[C@H](C(=O)NCCc1nc(-c2nc(C(=O)NCCC[S+](C)C)cs2)cs1)[C@@H](C)O)[C@@H](O[C@@H]1O[C@@H](CO)[C@@H](O)[C@H](O)[C@@H]1O[C@H]1O[C@H](CO)[C@@H](O)[C@H](OC(N)=O)[C@@H]1O)c1c[nH]cn1 | 93.1 |
| CC(C)N(CCC(C(N)=O)(c1ccccc1)c1ccccn1)C(C)C (stereo not drawn) | 113 |

Series 2
Target: Calcium/calmodulin-dependent protein kinase type II subunit alpha (CAMK2A, Homo sapiens, UniProt Q9UQM7)
Chain of UniProt Q9UQM7 (whole entry, looked up): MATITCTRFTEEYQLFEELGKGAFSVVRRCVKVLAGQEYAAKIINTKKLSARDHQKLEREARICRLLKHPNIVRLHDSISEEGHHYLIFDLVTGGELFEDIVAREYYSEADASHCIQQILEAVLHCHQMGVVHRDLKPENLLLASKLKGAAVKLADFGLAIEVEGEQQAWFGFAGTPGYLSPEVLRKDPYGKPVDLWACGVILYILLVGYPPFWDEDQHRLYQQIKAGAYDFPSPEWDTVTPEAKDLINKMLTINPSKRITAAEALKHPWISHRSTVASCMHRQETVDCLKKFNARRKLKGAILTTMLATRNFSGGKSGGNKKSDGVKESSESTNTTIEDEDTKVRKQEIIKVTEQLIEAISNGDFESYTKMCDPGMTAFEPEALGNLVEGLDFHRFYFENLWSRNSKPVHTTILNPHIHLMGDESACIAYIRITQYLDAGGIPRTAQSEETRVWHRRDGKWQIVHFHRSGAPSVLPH
Effect on: enzyme activity
Action: inhibitor
Tested at: 10 µM
| Structure (SMILES) | inhibition |
| --- | --- |
| C[C@@H]1CC[C@@]2(OC1)O[C@H]1C[C@H]3[C@@H]4CC=C5C[C@@H](O[C@@H]6O[C@H](CO)[C@@H](O[C@@H]7O[C@@H](C)[C@H](O[C@@H]8O[C@@H](C)[C@H](O)[C@@H](O)[C@H]8O)[C@@H](O)[C@H]7O)[C@H](O)[C@H]6O[C@@H]6O[C@@H](C)[C@H](O)[C@@H](O)[C@H]6O)CC[C@]5(C)[C@H]4CC[C@]3(C)[C@H]1[C@@H]2C | 1% |
| COc1ccc2c(c1OC)C(OC)N(C)c1c-2ccc2cc3c(cc12)OCO3 (stereo not drawn) | -17% |
| CN(C)NC(=O)CCC(=O)O | -1% |

Series 3
SMILES: C[C@@H]1C[C@@H]([C@H](O)CC2CC(=O)NC(=O)C2)C(=O)[C@@H](C)C1
Target: Membrane-associated tyrosine- and threonine-specific cdc2-inhibitory kinase (PKMYT1, Homo sapiens, UniProt Q99640)
Chain of UniProt Q99640 (whole entry, looked up): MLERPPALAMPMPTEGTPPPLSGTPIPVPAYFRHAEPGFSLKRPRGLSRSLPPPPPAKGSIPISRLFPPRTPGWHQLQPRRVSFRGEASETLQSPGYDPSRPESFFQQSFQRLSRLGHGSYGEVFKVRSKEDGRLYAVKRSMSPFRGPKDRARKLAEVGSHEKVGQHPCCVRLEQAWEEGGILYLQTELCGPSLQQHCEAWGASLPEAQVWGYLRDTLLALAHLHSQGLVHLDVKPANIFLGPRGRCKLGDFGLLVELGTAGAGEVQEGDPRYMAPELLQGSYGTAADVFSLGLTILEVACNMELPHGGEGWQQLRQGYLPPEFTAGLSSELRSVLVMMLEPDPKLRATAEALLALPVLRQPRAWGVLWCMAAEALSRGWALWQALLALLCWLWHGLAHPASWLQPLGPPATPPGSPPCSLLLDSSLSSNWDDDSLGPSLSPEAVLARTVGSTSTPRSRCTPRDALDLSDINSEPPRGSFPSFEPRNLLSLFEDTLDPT
Technique: immunoblotting
Cells: HCC1569
Tested at: 50 µg/mL
| setting | remaining protein level [%] |
| --- | --- |
| 4 h | 63.9 |
| 1 h | 69.4 |
| 48 h | 29.2 |
| 8 h | 66.6 |
| 2 h | 80 |
| 24 h | 37.1 |

Other studies, line by line
Species: C57BL/6 CES1-/- mouse
Route: intravenous
Dose: 1 mg/kg
| Compound | haematocrit |
| --- | --- |
| CC(=O)N[C@@H](Cc1c[nH]c2ccccc12)C(=O)N[C@@H](CCC(=O)C=[N+]=[N-])C(=O)OC(C)C | 20.4% and 22% and 23.4% |
| [N-]=[N+]=CC(=O)CC[C@H](N)C(=O)O | 24.2% and 21.8% and 13.5% |

A few entries again (series 2):
| Structure (SMILES) | inhibition |
| --- | --- |
| C[C@@H]1CC[C@@]2(OC1)O[C@H]1C[C@H]3[C@@H]4CC=C5C[C@@H](O[C@@H]6O[C@H](CO)[C@@H](O[C@@H]7O[C@@H](C)[C@H](O[C@@H]8O[C@@H](C)[C@H](O)[C@@H](O)[C@H]8O)[C@@H](O)[C@H]7O)[C@H](O)[C@H]6O[C@@H]6O[C@@H](C)[C@H](O)[C@@H](O)[C@H]6O)CC[C@]5(C)[C@H]4CC[C@]3(C)[C@H]1[C@@H]2C | 1% |
